Experimental data from different studies.
Parts stem from different laboratories: compare values within a part only.
Sequence of UniProt Q9UQM7 (whole entry, looked up): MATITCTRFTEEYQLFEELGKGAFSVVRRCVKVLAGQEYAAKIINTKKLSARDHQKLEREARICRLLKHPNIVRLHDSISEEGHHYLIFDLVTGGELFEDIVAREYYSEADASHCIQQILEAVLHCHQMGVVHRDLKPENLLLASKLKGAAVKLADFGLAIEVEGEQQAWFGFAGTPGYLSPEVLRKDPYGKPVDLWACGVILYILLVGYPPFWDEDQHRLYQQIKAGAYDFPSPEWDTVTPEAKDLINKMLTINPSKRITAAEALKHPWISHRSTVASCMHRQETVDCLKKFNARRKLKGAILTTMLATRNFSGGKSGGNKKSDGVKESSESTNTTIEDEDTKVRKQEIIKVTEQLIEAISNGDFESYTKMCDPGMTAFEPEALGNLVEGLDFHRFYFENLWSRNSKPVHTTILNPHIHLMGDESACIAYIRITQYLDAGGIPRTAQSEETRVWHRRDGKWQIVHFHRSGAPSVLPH

Block 1
Cell line: HaCaT
Concentration: 100 µM
Time: 36 h
`C[C@@H]1[C@H](O)[C@@H](C)/C=C/C=C/CC/C=C/C=C/C=C/C=C/[C@H](O[C@H]2O[C@@H](C)[C@H](O)[C@@H](N)[C@H]2O)C[C@@H]2O[C@](O)(C[C@@H](O)[C@H](O)CC[C@@H](O)C[C@@H](O)C[C@@H](O)CC(=O)O[C@H]1C)C[C@H](O)[C@H]2C(=O)O` gave a viability of 79.1%.
`CC[C@@]1(O)C(=O)OCc2c1cc1n(c2=O)Cc2cc3cc(O)ccc3nc2-1` has a viability of 7.54%.
`CNCC(O)c1ccc(O)cc1` (stereo not shown) has a viability of 90.3%.

Block 2
Target: vesicular stomatitis virus glycoprotein
Read-out: viral entry
Technique: VSVΔG-G pseudovirus
Concentration: 10 µM
The inhibition of `N=C(N)Nc1ccc(C(=O)Oc2ccc3cc(C(=N)N)ccc3c2)cc1` is reported as -47%.
`c1ccc(Nc2nccc(-c3cccnc3)n2)cc1` gave an inhibition of 21%.
The inhibition of `O=C1CN(c2ncnc3sc4c(c23)CCCC4)CCN1` is reported as -29%.
For `CCCN(CCC)c1nc(N)ncc1[N+](=O)[O-]`, the inhibition was -55%.
`N#CC(=NNc1ccc(OC(F)(F)F)cc1)C(=O)c1ccc(Cl)cc1` gave an inhibition of 32%.
`Oc1ccc2ccccc2c1N=Nc1ccccn1` gave an inhibition of 26%.
`CC(=O)NC(c1ccc(C)cc1)c1ccc2cccnc2c1O` (stereo not shown) has an inhibition of 26%.
`CC(C)CC1(C)NC(=O)N(Cc2cc([N+](=O)[O-])cc3c2OCOC3)C1=O` (stereo not shown) gave an inhibition of -2%.

Block 3
Structure (SMILES): CC(C)n1cnc(-c2ccc(F)cc2)c1-c1ncc(C(=O)Nc2ccc(N3CCN(C)CC3)cc2)[nH]1
Technique: Phase 2a trial
Measured: influenza like illness
Host: idiopathic pulmonary fibrosis patients
For dose not given, grade 3 maximum intensity, all arms: “patients with adverse events” read 0%.
30 mg once daily, grade 4 maximum intensity — “patients with adverse events”: 0%.
The “patients with adverse events” was 0% (30 mg once daily, grade 5 maximum intensity).
For dose not given, grade 1 maximum intensity, all arms: “patients with adverse events” read 0%.

Further values, each from its own experiment
With `CC[C@@H]1CN2CC[C@]3(C(=O)Nc4ccccc43)[C@@H]2C[C@@H]1/C(=C\OC)C(=O)OC` the inhibition was -5% (Calcium/calmodulin-dependent protein kinase type II subunit alpha (CAMK2A, Homo sapiens, UniProt Q9UQM7); enzyme activity, inhibitor; 10 µM).

For quick reference, copied from above (block 1):
`C[C@@H]1[C@H](O)[C@@H](C)/C=C/C=C/CC/C=C/C=C/C=C/C=C/[C@H](O[C@H]2O[C@@H](C)[C@H](O)[C@@H](N)[C@H]2O)C[C@@H]2O[C@](O)(C[C@@H](O)[C@H](O)CC[C@@H](O)C[C@@H](O)C[C@@H](O)CC(=O)O[C@H]1C)C[C@H](O)[C@H]2C(=O)O` gave a viability of 79.1%.
